Measurements from different studies.
Every numbered part comes from another study and shows a few of its results, in no order. Positions count from the first letter of the parent shown.

Study 1
Target: FOSL2, bZIP domain (human)
Method: DHFR protein complementation
Sample: yeast
Setting: single substitutions, most at no-binding floor
Relative to: wild-type JUN-FOS pair
Direction: higher = stronger binding
Endpoint: binding fitness
Parent: JUN, bZIP domain (human); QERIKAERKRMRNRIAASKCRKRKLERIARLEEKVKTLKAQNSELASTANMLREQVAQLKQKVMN; partner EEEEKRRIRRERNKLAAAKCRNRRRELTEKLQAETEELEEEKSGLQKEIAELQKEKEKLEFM
V56P: -1.17 natural log
Q55D: -0.2 natural log
N42V: 0.183 natural log
A40L: -0.0122 natural log
L52F: -0.66 natural log
Q41I: 0.0682 natural log
N42Q: -0.512 natural log
A29F: -0.116 natural log
L45R: -0.935 natural log
E44T: -0.0956 natural log
K34W: 0.11 natural log
I28G: -0.0609 natural log
K36W: -0.197 natural log
L59G: -1.03 natural log
R30S: 0.203 natural log
A40N: 0.0868 natural log
I28K: -0.081 natural log
S43A: 0.175 natural log
L45A: -0.507 natural log
L31G: -0.737 natural log
M51T: 0.0947 natural log

Study 2
Target: RNA binding protein fox-1 homolog 2, RRM domain, GST-SBP tag (RBFOX2, Homo sapiens, UniProt O43251-10, residues 100-194)
Method: RNA Bind-n-Seq
Molecule type: RNA
Sample: in vitro
Tested at: 365 nM
Setting: natural RNA segment, single round, ends assumed
Relative to: no-protein control
Direction: higher = stronger binding
Endpoint: RBNS enrichment (R)
All sequences stand within: GGGAGUUCUACAGUCCGACGAUC … UGGAAUUCUCGGGUGCCAA
GUGAAUUGAUUUAUAAAUUGCUAUGCUUUGCUGUUUUUCUGUUGCUGUGGAACUUAAAGAAUGUGAAAGCUGUCAAAGGGUAUUUUACGAAUCACUUUUGUGUUUGAUAU: 2.21
CUCGAGAUCAGAUCAUAACUCAUUUGCCUAGAGGCAGCAGAAAUCUGAUCCUGCUACUGGAGCUUAAAAUAACAAGUAAAGAAAAGUGUUAGAAACAAAGCUAAAAUUUU: 0.63
AGGAACAGAGCGCGAACGGCUUCUAAAUUUCUAGCCCUCUCGCAGGGCAUCCUGACUGAACUGUGUCUAAGGGUCGGUCGGUUUACCACUGGACGGGUGCUGCAUCGGCA: 0.414
CCCUUUCUCUGCCCGCCUUUCCCAUCCUGCUGUAGACUUCUUGAUUGUCAGUCUGUGUCACAUCCAGUGAUUGUUUUGGUUUCUGUUCCCUUUCUGACUGCCCAAGGGGC: 3.43
AUAAAACAACAAAAUUAAUAAUGAAAUGGAGGGGAAUUCUAGAAUUAUAUGCUAAAUGCAUAUUUUAUGAUUUGCUGUAUUAACUGAUGAUAAAACUAAUGGCAGAAAAA: 1.55
ACAAAAAAAUAUCCUGGGCAAUAAAAAAAAUAUUUUAAACCAGCUUUGGAGCCACUUUUUUGUCUAAGCCUCCUAAUAGCGUCUUUUAAUUUAUAGGAGGCAAACUGUAU: 0.651
CCUGCGGCACGUUUGGGUUGGCACAGCUACCAUGAAAUGUUUUUAAUGGGAAUUCAUAAAGCAAGUUAGGAUUCACAAAUGUAGUGACCUAGUCCUUGGAGCUAAACUGG: 0.862
AUGUCAAGGUCAGCAGUGUUACUUUGAAUGUAAACUGGUAUAAUAGGUAGUUUUCUAUAGUAACUUGAUUAAUUUAGUCUUAAUCCAUUUGAAACUCUCUCUUCCUUUCU: 0.363
UCCUGCAGGACAGCUGCACUCAGGGAUACGCCCAACACCAUGGCCAGGGUCAAAGGUGAAGAAAGCAAGCUCACUGCCUGCACACGGAGAUUGUCUUUCUGCCACAGAAC: 0.845
GGGAAGGCCCACAGCCCAAGGGAUCCAUAAUAAUAAUUGCUUGGCCAGCCAUGUGGCCUGCUGGCGUUCCACUGUGGCAUUCUUUGUGGCACCAAGUCUUCACCUGCCCC: 0.518
UGAGCCUCACAGUAACCCUGUAAAGUUAGUAGAGCUUGUUCUUGUAUUGUGACCUUUUUUAAAAAAAAGGAACUGAGGUUCAGAAUGAUUAAGGGCCUGGCCCCCAGGGU: 0.999
UUCACCUACUCCACCUCUGCGCCUGGCCCAGCCCUUUCCCCGUCGGUGCCCCUGCACUACCUGCCCCACGAUCCGCUGCACCAGGAGCUGUCCUUUGGUGUGCCAUAUUC: 0.941

Study 3
Target: RING finger protein unkempt homolog, zinc fingers 1-6, GST-SBP tag (UNK, Homo sapiens, UniProt Q9C0B0, residues 30-357)
Method: RNA Bind-n-Seq
Molecule type: RNA
Sample: in vitro
Tested at: not given
Setting: RNA with constant flanks, human-mouse chimeric sites, ends assumed
Relative to: input RNA pool
Direction: higher = stronger binding
Endpoint: bound/input enrichment
All sequences stand within: GGGAGUUCUACAGUCCGACGAUC … CAACAGAGGAUUGAGCAUCA
Target sequence (chain): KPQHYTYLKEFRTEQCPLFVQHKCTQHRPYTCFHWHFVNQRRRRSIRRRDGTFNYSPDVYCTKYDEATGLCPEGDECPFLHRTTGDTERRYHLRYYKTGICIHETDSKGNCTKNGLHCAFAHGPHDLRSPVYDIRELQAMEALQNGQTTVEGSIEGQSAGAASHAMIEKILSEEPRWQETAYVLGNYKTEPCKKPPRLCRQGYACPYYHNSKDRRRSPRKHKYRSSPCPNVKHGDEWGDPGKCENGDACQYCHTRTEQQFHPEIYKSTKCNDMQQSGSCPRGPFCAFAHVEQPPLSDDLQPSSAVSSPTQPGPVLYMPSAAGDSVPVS
GAGCGUCUUGCCCGCACUGGGAUCAUCGUGACCACUAGUGAGGCUGUUCUGCUUCAGCUGGUGGCUGACAAAGACCACCCGAAGUUCAAGGAAAUUCAGAAUCUAAUUAAGGCGAGUGCC: 0.0721 ratio
AAAUCGUGUGUGUCCAAUAUUGAAAGUGCUUUAUCUACACUCCAGUAUGUAAGCAGUAUAGUAGUUUCUUUAGAGAAUAGGUCAGCCAUUGUAAAGUAUAAUGCAAGCUUAGUCACUCCA: 9.21 ratio
UUGAAAACUGAUUCAAGUAAGUUUGAGUAUCACAAUGUUAGCUUUCUAAUUCCACACAAGUACUUGGUACAGUUUCUUUAUAAUCUGACAUCACCCCAGCGCCAUUUGUAAAGAGCAACU: 0.912 ratio
GUGACUGGUGUUAAGAUUUCCCCUCAGAAAAGAACUGCAGUAGUCACCAUAAUUCCAUCUGUGGUGAGUGCCAGUCAGAUAAAAGAGCUGGUCCCAGACCUCAGUUUAGACAUGGGAACU: 0.242 ratio
GGGACUGAUUCAUCCCAAGGACAGGCCACCCCAUUUGAUGCCUGGACUGACGACAGUAUGGAAGGGCCUAGUCAAAAUGUUGAAGCUGAGUCAAUUCAGGAUGCCAUGCAUAUGGCAGAG: 0.166 ratio
GCAAAGGAUGAUGAGGCAGCUGCAGUUGCCCUUUCCUCUCUCGUUCAUGCUUUGGAUGAGUUAAACAUGGUCGCCAUAGUUCGAUAUGCUUAUGACAAAAGAUCUAAUCCUCAAGUUGGU: 0.611 ratio
UGACAAGGGCACUGCAGAGCCAUGCCUUUCCUUGACAUACAGAAAAAGCUGGGCAUCAACAUAGAUCGGCACUUUAUGUUCCUAAGCGCAGAACAGCCCUACAAGAUCGCCGCUCGGUGC: 0.0761 ratio
UCUUUAAAAAAAAAAUUACCUUUUCUGACAGUGCUUUCCCUCCCAUAGAUCCACGUUCAAGCUCAAAGGCCAAAACUUCCGCAAACAGCUCAAACAUCUGAUGAAGAAAGAUUUCUGAGA: 1.23 ratio
GAGCCCAGCCGGCAGUUUGUAAAGGACUCAAUUCGGCUGGUUAAAAGAUGCACCAAACCUGAUAGAAAAGAAUUCCAGAAGAUUGCCAUGGCAACAGCUAUAGGAUUUGCUAUCAUGGGA: 0.158 ratio
AGAAUCUUGGGACUGUUUUACUUAAUUGGUCAUUGAUAGCUUAACAAGCAUGGAGAUAAGAUUAGAAAUCUUGACAUCAACAGGUAUUAAGCAGAAAAAACCAUGGCCACGUGUCUCCUG: 0.102 ratio
CUGUGACCACAAGAUCCUACCUGAGUGGCAGCUGAAGUUGACUCCCUCCCCUUCCCUGAACCCCCCCCUUUUGUUCCCCCAUCCCCCAGUGUCGGCUGAGAUGUUGCCUCUGCACGGUUC: 1.32 ratio

Study 4
Target: ABI1, truncated, D143A, DHFR fusion (Arabidopsis thaliana)
Method: DHFR PCA, deep sequencing
Sample: yeast
Setting: methotrexate growth selection, single substitutions
Added: (+)-ABA 710 µM
Relative to: wild-type fitted maximum
Direction: higher = stronger binding
Endpoint: relative binding score
Parent: PYL1, truncated, DHFR fusion (Arabidopsis thaliana); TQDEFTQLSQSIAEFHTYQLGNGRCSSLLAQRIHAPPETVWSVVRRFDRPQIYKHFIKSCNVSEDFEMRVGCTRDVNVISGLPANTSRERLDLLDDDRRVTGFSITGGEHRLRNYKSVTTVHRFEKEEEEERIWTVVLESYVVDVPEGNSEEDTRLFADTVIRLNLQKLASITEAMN; partner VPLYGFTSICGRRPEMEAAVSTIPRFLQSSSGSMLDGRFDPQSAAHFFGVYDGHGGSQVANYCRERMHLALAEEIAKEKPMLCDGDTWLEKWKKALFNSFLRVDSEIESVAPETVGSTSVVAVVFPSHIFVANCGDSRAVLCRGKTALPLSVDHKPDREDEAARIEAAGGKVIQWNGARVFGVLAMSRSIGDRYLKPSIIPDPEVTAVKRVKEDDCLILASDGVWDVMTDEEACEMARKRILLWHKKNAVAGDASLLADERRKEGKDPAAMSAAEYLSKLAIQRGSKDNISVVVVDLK
P146F: 46.3%
A175D: 97%
P37C: 96.6%
G21A: 104%
S140W: 27.3%
V70M: 87.2%
E147C: 95.9%
L112V: 62.6%
R99D: 19.9%
N85D: 99.8%
A35G: 88.6%
H122W: 12.7%
G102D: 5.45%
A30L: 101%
L28K: 96.5%
R163Y: 61.7%
V40K: -36.3%

Study 5
Target: Histone acetyltransferase KAT6A, winged helix 2, GST fusion (KAT6A, Homo sapiens, UniProt Q92794, residues 85-181)
Method: protein binding microarray
Molecule type: double-stranded DNA, one strand shown
Sample: in vitro
Tested at: not given
Setting: 8-mer, flanks averaged, mean of 2 arrays, mostly near background
Relative to: not given
Direction: higher = stronger binding
Endpoint: E-score
Residues (chain): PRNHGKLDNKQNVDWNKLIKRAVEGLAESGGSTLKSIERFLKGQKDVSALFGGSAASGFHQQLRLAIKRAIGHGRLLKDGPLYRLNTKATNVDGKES
TATTGTAA: -0.0292
GGCACTTA: -0.0118
AACCCGAA: 0.115
AACGTCTT: -0.178
ACTGGACC: 0.0479
CCCTACAG: -0.139
ATATCCGC: 0.182
AGTAGAGG: -0.229
AGGAGCCC: 0.0471
TAAGGCGA: -0.0245
TAACTCGA: 0.158
CCGTGTTA: -0.0271
GCATATAC: -0.131
CGTTGTCC: -0.00354
CTTGGATA: -0.158
CCCTATCC: -0.0779
GCGTGAAA: 0.0395
TCACGGCA: -0.00914
CGGCCCGC: 0.198
GGCCCATA: -0.0819
CGTCAACC: -0.158
AGCAAAGC: 0.063
CAGGTTTA: -0.143
ACCATCCG: 0.00168

Study 6
Target: CCNB2, cyclin fold, Cln2 fusion (human)
Method: yeast growth competition, sequencing
Sample: yeast
Setting: weak parent motif
Relative to: not given
Direction: higher = stronger binding
Endpoint: normalised enrichment score
Parent: WEE1 docking peptide (human); HKTFRKLRLFDTP; partner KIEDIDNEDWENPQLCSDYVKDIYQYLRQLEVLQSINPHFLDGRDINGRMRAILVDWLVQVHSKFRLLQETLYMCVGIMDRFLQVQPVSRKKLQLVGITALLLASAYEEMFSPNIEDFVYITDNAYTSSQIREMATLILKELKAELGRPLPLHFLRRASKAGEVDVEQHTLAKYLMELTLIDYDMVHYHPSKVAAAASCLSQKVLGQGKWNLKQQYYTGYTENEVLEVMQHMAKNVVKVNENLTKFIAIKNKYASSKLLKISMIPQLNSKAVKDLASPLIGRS
R8T: 0.639
T3P: 0.623
L7F: 0.115
K2W: 0.0432
P13V: 0.881
R5Q: 0.31
R8H: 0.714
F4L: 0.478
H1R: 1.6
T12V: 0.706
R8V: 0.547
T3S: 0.155
K2M: 0.146
L9Q: 1.36
R5M: 0.00697
K2G: -0.0938
K2I: 0.314
P13E: -0.886
F10Q: -0.0671
T3Y: -0.893
H1M: 0.591
H1P: 0.905
R8G: -0.276
F4S: 0.641

Repeated from above (study 6):
T3P: 0.623
K2I: 0.314
R8H: 0.714
R8V: 0.547
F4S: 0.641
L9Q: 1.36
T3S: 0.155
